# Experimental data pooled from the literature.
# Every numbered part comes from another study and shows a few of its results, in no order.

# Series 1
# Target: RNA binding protein fox-1 homolog 2, RRM domain, GST-SBP tag (RBFOX2, Homo sapiens, UniProt O43251-10, residues 100-194)
# Method: RNA Bind-n-Seq
# Form: RNA
# Medium: in vitro
# Tested at: 365 nM
# Notes: natural RNA segment, single round, ends assumed
# Relative to: no-protein control
# Reading: higher = stronger binding
# Shared flanks, not repeated: GGGAGUUCUACAGUCCGACGAUC … UGGAAUUCUCGGGUGCCAA
# Residues (chain): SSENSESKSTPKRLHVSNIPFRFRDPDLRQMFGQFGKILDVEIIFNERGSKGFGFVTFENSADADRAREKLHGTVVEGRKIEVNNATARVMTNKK
Oligonucleotide,RBNS enrichment (R)
AGGCUGGUACCGCAGCGCCAUGCCCAUUCCUCGCCUCAUUCAUAGGACACUUCACUGCCAUUUUCUAUUCACAUAAAAGAAAAAUAAAUGUGGAAAUUUCAUCCUUGGAA,0.363
GAAAGAGAUGGAACUAAACUCUACUAUCAGCUGCUUCAAAAACCUUUUGUCUACGGCCUGGGAAGAUGUUCUCCAGCCCCUGAGCCUAUUGGUUGGAUAGAGAGAGACUG,0.377
AGAACAUUUUGGGAAACACUAUGUUAGAUAGUUCUUUAAGGAGACAAAACGGUAAUGAACAGAUAGCACUGGGGCAGAAUAUGCAUGCAUUUUGUAACGUCCAGUGUGGC,31
CCCUGGUGCUUUCAGCUUCCCCCAGCUAGGCCUGACCCUGGCUCUUGCUGUAGGCCACAUGCUGAAGGCAAGCCAACCCGAGGACGAGGACAGUCCCUGGAUCCUACACA,0.245
CUCUGCAGAUGGUGAAGCCUUUGAGGCAGCCUCUUGCUUUCUCCUGUGGGUCCCUUGUGCCCACAGUGUGUAGAGAAGAGCAGGUGCAUGGGGCCAGGGGACCAAGAGUC,4.06
CACUGGUCGUCAGGGAGCUCCUCCCCUUGGCCCCCAGCCUGUGCCAGCCCUGGCCCGGCUGCCACACCUCUGUUUCCUAGGCUGGGGACCCAGCUUGUCUCUCCUUGUUU,0.903
AGGAGAUGAAGUUUGGAAUCCAGUUUCUUUGGCUCAGAGCUGCUUUCAGUACCACUUGUUUUUAGCAGACUGUCAUGGCUGCAGCUCUGUCUCUCUUGGGGUAAACUUGC,0.392
AGAUUUAACAAAUCACUUCCUUCAUCCUUGUUGUUAUGGAAACCGUUGCCAGAGCUGGAAGUUUCCACAGGCUGCUGGAGCUAGACAACAAUUCAGACAGAAAGGGAAAG,0.344

# Series 2
# Target: Interferon regulatory factor 5, full length, phosphomimetic (IRF5, Homo sapiens, UniProt Q13568-2, residues 1-514, S451D/S453D/S456D/S462D)
# Method: protein-binding microarray
# Form: double-stranded DNA, one strand shown
# Medium: in vitro
# Tested at: 940 nM top
# Notes: 60-bp whole probe
# Together with: salmon DNA 0.4 mg/ml
# Relative to: random background probes
# Reading: higher = stronger binding
# Shared flanks, not repeated: GCCTAGCAC … GTCTTGATTCGCTTGACGCTGCTG
Oligonucleotide,fitted relative affinity [z-score]
GACGGTTTCGACCCTGGGGACGTGCTA,6.23
GACGGTTTCGACACAGGGGACGTGCTA,6.73
CTAGGACTGGGTATCGGTTAGTGCTAG,3.54
TTAGGTTTCGACTTTCGGTAAGTGCTA,9.4
TTAGGTATCCTTCGCCTTTAGTGCTAG,0.351
TTAAGTTTCGGTTTCGGTTAGTGCTAG,16.5
TTAGGACTGAGGACTGGGTTAGTGCTA,-0.582
TTAGGACTGGACAATCGGTTAGTGCTA,-0.373
GACGGTTTCGGTATCGGGAAGTGCTAG,13.5
GACGGTCTGGGTCTCGGGACGTGCTAG,0.0258
TTGGGTATCGACTATCGGTTAGTGCTA,4.56
CTTGGGCTCTTCTCTGAAGACGTGCTA,-0.5
TTCGGTCTCCTTATCCTTTAGTGCTAG,1.1
TTAGGTCTCCTTCTCCTTGAGTGCTAG,0.358
TTCCAATTCTCTTTTCACTTGTGCTAG,2.86
GACGGTTCCGGATTCGGGACGTGCTAG,0.817
TCATTTTTTTTTTTCTGACTGTGCTAG,1.26
TGGTGTCTCTGGCCTGGGTCGGTGCTA,0.254
GGCGGTATCGGGACTGGGGACGTGCTA,3.31

# Series 3
# Target: Ras GTPase-activating protein-binding protein 1, full length (G3BP1, Homo sapiens, UniProt Q13283)
# Sequence of UniProt Q13283 (whole entry, looked up): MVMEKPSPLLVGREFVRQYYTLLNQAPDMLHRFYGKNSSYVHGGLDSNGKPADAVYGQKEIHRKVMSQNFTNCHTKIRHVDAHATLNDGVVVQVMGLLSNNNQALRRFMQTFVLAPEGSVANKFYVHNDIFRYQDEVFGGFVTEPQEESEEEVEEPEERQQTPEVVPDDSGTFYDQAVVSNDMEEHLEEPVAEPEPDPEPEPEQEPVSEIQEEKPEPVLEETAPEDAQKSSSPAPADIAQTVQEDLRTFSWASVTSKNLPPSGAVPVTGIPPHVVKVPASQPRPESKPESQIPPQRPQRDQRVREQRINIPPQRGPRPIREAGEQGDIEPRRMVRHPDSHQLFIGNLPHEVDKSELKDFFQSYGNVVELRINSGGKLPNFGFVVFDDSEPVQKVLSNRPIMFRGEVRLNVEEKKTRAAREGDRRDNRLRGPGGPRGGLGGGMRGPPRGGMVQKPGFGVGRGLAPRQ
# Method: RNA Bind-n-Seq
# Form: RNA
# Medium: in vitro
# Tested at: 200 nM
# Notes: whole 134-nt RNA, ends assumed
# Together with: 150 mM KCl
# Relative to: input library
# Reading: higher = stronger binding
# Shared flanks, not repeated: GGGAGUUCUACAGUCCGACGAUC … UGGAAUUCUCGGGUGUCAAGG
Oligonucleotide,log2 enrichment
UGUGCUACACAUCGUAUGUACCGAAUCGGGGUUUUUUUGGGUUUUUUUGGGGUUUUUUUGGGGAAAGUAUUAUGUUACGCCGUUCGGAUC,-0.657
AGUCCUGUGCUACACAUCGUAUGUACCGAAUCGGUUUUUGGGGUUUUUGGGUUUUUGGAAAGUAUUAUGUUACGCCGUUCGGAUCUGCAC,-0.865
CCUGUGCUACACAUCGUAUGUACCGAAUCGGGGCCCCCCGGCCCCCCGGGGCCCCCCGGGAAAGUAUUAUGUUACGCCGUUCGGAUCUGC,-0.327
UCCUGUGCUACACAUCGUAUGUACCGAAUCAAACCCCCAAAUUUUUAAACCCCCCCAAAAAAGUAUUAUGUUACGCCGUUCGGAUCUGCA,-0.0352
UCAAGUCCUGUGCUACACAUCGUAUGUACCGAAUCGGGAAGGGAAGGGAAGGGGAAAGUAUUAUGUUACGCCGUUCGGAUCUGCACUUCC,1.3
CAAGUCCUGUGCUACACAUCGUAUGUACCGAAUCGGGGAAGGGGAAGGGGAAGGGAAAGUAUUAUGUUACGCCGUUCGGAUCUGCACUUC,0.994
AGUCCUGUGCUACACAUCGUAUGUACCGAAUCGGGUUUUUGGGUUUUUUUGGGAGGGAAAGUAUUAUGUUACGCCGUUCGGAUCUGCACU,-0.207
CUCAAGUCCUGUGCUACACAUCGUAUGUACCGAAUCGGGAGGGUGGGUUUGGGAAAGUAUUAUGUUACGCCGUUCGGAUCUGCACUUCCA,0.928
ACCAUGCAGGUGGGCAUCUUUGGGAAGUGGGGCAAGGGGGGGAUACGGAGGGGGGUAACACUUUGGGAACAGGUGGUCCCAGGUCGUUUC,1.02

# Series 4
# Target: RING finger protein unkempt homolog, zinc fingers 1-6, GST-SBP tag (UNK, Homo sapiens, UniProt Q9C0B0, residues 30-357)
# Sequence of UniProt Q9C0B0 (30-357, looked up): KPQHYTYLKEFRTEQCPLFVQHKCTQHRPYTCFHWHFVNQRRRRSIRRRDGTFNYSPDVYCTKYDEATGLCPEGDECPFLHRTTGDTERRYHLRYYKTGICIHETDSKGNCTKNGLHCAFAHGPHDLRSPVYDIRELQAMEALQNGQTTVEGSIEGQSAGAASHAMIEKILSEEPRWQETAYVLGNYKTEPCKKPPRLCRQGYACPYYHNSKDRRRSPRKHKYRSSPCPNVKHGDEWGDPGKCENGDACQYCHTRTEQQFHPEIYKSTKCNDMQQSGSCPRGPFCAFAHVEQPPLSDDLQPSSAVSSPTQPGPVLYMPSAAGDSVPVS
# Method: RNA Bind-n-Seq
# Form: RNA
# Medium: in vitro
# Tested at: not given
# Notes: RNA with constant flanks, ends assumed
# Relative to: input RNA pool
# Reading: higher = stronger binding
# Shared flanks, not repeated: GGGAGUUCUACAGUCCGACGAUC … CAACAGAGGAUUGAGCAUCA
Oligonucleotide,bound/input enrichment [ratio]
GUAAAGAGUUAAAGACUAUGUGAAGGAUUGUAUAUUUAAGUUAUUGAAAUUCUGAAACUGCCGUAAUCUAAAAUGUGUGAGUUGUGGGCUGCAGAGAAGACUCAGCCAGUAAAGGCACCU,0.538
UGGCCAUAUUUCCCUAGACGUUAUCCUCUGCCUUGUCAGUUUGUUUGUCUGUGGCUUUUUUUCCGGGGAGGGGGAAGAGAUGGGCAGCUGUAACAAGUAGCCCAGAUAGAUCUAUGGGUG,0.842
UUCUCCAAUGUUACGCUCGCUUGCCUAGCUUUACGAAUAUUGCUUUGUUUUCUGUUUAUGCACCGCCUUGAUUUGUUUGACUCCCCUCCCCCCAUUUACAUGCAUGCAAUCAGACAGGCC,3.58
GAGGUCCUGAGACAGGAAGACAAAGCUGAAGCCAUGUCCGGCCAUAUUGAUCAGUUUCUGACCGCCACUUUUAUGCAGCUAAGACUCAUCUACAACACACACAUGGCAGAUGAGAAAUUG,0.214
UGCCCAUCUUAGGUUGCGGUGACCGAGGUUUGUGAGGUUUUCCUUGUUUGAGAUAAAUUCCCGCAUUUGCUUUAUCAUAUACUCCUCCUGUGUGAGCGUGGAAAAGUUUAGAAUUGUAUG,0.535
GAGGCUUGCAAAGACAUCCUGCUGUUUAAGAAUCUGGAUCCGGAGCAGAUGUCUCAAGUAUCCGAUGCCAUGUUUGAAAAAUUGGUCAAAGAUGGGGAGCAUGUAAUUGAUCAAGGUGAC,0.294
UCAAGCUGUGCUGUAAAUAUCAUUUAGACCUAUUGAGAAUUAACAGCAAAUCUGAGCUACUUCCGUGUUACCAACUAUUAGUCUGCUGACUGUUUCUAUAACAAAAUACCUGAGACAAUC,0.769
AGCAUUUGAUUAUUUUUUUUAAAUACACUCUCUUAUUUUUCUACUUGUUUUUUUGUUAAUCACCGCAGGAUAUGACAACUCUUAUUUGAAUUGAUUUUUUCAUCUAAUGUAAUAAUGGAA,2.63

# Excerpt of the above (series 2):
Oligonucleotide,fitted relative affinity [z-score]
TTAAGTTTCGGTTTCGGTTAGTGCTAG,16.5
TTAGGACTGAGGACTGGGTTAGTGCTA,-0.582
TTAGGACTGGACAATCGGTTAGTGCTA,-0.373
GACGGTTTCGGTATCGGGAAGTGCTAG,13.5
GACGGTCTGGGTCTCGGGACGTGCTAG,0.0258
